Published values pooled from the literature.
Each numbered part is a random draw from the data of one study; scales do not carry over between parts.

Block 1
Target: Interferon regulatory factor 3, full length, phosphomimetic (IRF3, Homo sapiens, UniProt Q14653, residues 1-427, S386D/S396D/S398D/S402D/T404D/S405D)
Method: protein-binding microarray
Form: double-stranded DNA, one strand shown
Sample: in vitro
Tested at: 2540 nM top
Notes: 60-bp whole probe
With: salmon DNA 0.4 mg/ml
Reference: random background probes
Reading: higher = stronger binding
Construct (chain): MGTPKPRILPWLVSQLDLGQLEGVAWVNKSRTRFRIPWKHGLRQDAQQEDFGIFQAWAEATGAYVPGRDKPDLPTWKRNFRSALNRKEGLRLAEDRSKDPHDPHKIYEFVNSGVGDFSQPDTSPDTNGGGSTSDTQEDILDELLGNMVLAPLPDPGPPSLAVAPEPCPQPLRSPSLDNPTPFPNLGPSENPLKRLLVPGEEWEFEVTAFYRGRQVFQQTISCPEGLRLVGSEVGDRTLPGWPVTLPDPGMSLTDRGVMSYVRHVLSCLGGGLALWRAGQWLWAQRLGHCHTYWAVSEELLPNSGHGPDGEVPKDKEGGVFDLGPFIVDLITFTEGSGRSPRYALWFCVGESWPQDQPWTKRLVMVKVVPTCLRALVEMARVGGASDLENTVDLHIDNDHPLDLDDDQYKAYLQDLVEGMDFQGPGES
`GCCTAGCACATTGTTTTCAGTTTCACTGCGTGCTAGGTCTTGATTCGCTTGACGCTGCTG` — result for “fitted relative affinity”: 4.2 z-score.
For `GCCTAGCACTTACATCTCAGTTTCGATTAGTGCTAGGTCTTGATTCGCTTGACGCTGCTG`, “fitted relative affinity” read 3.77 z-score.
`GCCTAGCACGATGGTATCCTTCTCCTGACGTGCTAGGTCTTGATTCGCTTGACGCTGCTG`: “fitted relative affinity” 7.09 z-score.
`GCCTAGCACGACGGTTTGCTACTGCTGACGTGCTAGGTCTTGATTCGCTTGACGCTGCTG` — result for “fitted relative affinity”: 0.114 z-score.

Block 2
Target: Sox-I, HMG box (Salpingoeca helianthica)
Method: Spec-seq
Form: double-stranded DNA, one strand shown
Sample: in vitro
Tested at: not given
Notes: whole probe, mean of replicates
Reference: not given
Reading: lower = stronger binding
All sequences stand within: GAGTCGTCTCGTCAGCAC … CCGTAGAGCACTCAGGTC
Target sequence (chain): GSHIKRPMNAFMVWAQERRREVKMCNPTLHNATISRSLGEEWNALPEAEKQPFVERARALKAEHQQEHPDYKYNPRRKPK
`CGGAGTT`: “relative binding energy” 1.01 ln ratio.
`GTACGTT` — result for “relative binding energy”: 0.909 ln ratio.
Under “relative binding energy”, `CATCCCG` is recorded as 1.17 ln ratio.
Under “relative binding energy”, `CATACAC` is recorded as 0.102 ln ratio.
Under “relative binding energy”, `CCTTGTT` is recorded as -1.52 ln ratio.

Block 3
Target: Histone acetyltransferase KAT6A, both winged helices, GST fusion (KAT6A, Homo sapiens, UniProt Q92794, residues 1-181)
Method: protein binding microarray
Form: double-stranded DNA, one strand shown
Sample: in vitro
Tested at: not given
Notes: 8-mer, flanks averaged, mean of 2 arrays, mostly near background
Reference: not given
Reading: higher = stronger binding
Construct (chain): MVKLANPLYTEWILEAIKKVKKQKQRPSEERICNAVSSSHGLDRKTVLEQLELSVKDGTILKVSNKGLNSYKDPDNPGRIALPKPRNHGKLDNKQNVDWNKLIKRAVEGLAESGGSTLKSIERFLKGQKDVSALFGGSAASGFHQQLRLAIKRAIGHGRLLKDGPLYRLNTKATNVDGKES
`GTGAACTA` has an E-score of 0.0204.
For `ACATGAAG`, the E-score was 0.0161.
With `GAAGCAGA` the E-score was -0.298.
`CTGCGGAA` has an E-score of 0.164.

Mixed results
For `PhoQ, residues 284 288 289 292 302 303 NLMGRA`, the fold induction was 0.406 (PhoP, residues 12 14 15 18 19 LYHSL (Escherichia coli, UniProt P23836); Sort-seq, item: YFP reporter; E. coli; PhoQ-PhoP variant library, with: 10 µM Mg2+; reference: high Mg2+ state, higher = stronger signaling).
